Experimental data pooled from the literature.
Each line is one published result; not all experiments were run side by side. Numbers after ± are the reported error.
Chain of UniProt P61823 (whole entry, looked up): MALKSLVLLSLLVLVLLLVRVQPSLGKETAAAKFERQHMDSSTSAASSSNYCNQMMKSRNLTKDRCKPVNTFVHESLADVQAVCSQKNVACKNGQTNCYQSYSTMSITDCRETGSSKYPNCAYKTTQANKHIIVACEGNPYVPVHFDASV

SMILES | tested on | assay | test system | setting | scale | endpoint | result
CC[C@H]1[C@@H](O)[C@@H]2[C@H](CC[C@]3(C)[C@@H]([C@H](C)CCNC(=O)NS(=O)(=O)c4ccc(C(C)(C)C)cc4)CC[C@@H]23)[C@@]2(C)CC[C@@H](O)C[C@@H]12 | ABCB1 (Homo sapiens, UniProt P08183) | substrate | human, plasma | dose not given, together with: quinidine | – | AUC(0-t) geometric mean | 366 ng·h/mL
c1coc(-c2n[nH]cc2-c2ccnc3ccccc23)c1 | BUB1 (Candida albicans) | kinase binding, MIB/MS competition | Candida albicans lysate | 1 µM | reference: DMSO | log2 fold change | -0.22
CC(=O)OC[C@H]1O[C@@H]([S-])[C@H](OC(C)=O)[C@@H](OC(C)=O)[C@@H]1OC(C)=O.CCP(CC)CC.[Au+] | Toxoplasma gondii | parasite growth | HFF, bradyzoite, glutamine-induced | – | – | EC50 | 412 nM
CC(C)C[C@H](NC(=O)C[C@H](O)[C@H](CC(C)C)NC(=O)[C@H](Cc1c[nH]cn1)NC(=O)CNC(=O)[C@@H](NC(=O)[C@H](C)NC(=O)[C@H](Cc1c[nH]c2ccccc12)NC(=O)[C@H](CCC(N)=O)NC(=O)[C@@H](Cc1ccccc1)NC(=O)COCCOCCNC(=O)CCC(C(=O)O)N1CCN(CC(=O)O)CCN(CC(=O)O)CCN(CC(=O)O)CC1)C(C)C)C(N)=O (stereo partly shown) [lutetium-177 labelled] | – | – | BALB/c nu/nu mice, bladder | intravenous, 250 pmol, 1 h, together with: PA 300 µg | – | tissue uptake | 58 ± 36 %ID/g
C[n+]1cc2c3c(ccc2c2ccc4cc5c(cc4c21)OCO5)OCO3 | Toxoplasma gondii | parasite growth, luciferase reporter | HFF, tachyzoite | 72 h | – | EC50 | 343 nM
COc1cc(C#CC(=O)c2ccc(C)cc2)ccc1O | Pseudomonas aeruginosa | static biofilm | PA14 | 10 µM, 24 h | reference: DMSO | biofilm formation | 74%
Cc1cc(Nc2ccc(S(F)(F)(F)(F)F)cc2)n2nc(C(C)(F)F)nc2n1 | Plasmodium falciparum | – | human malaria patients, plasma | oral, 400 mg, median | – | Tmax | 8.1 h
CC(C)NCC(O)c1ccc(O)c(O)c1 (stereo not shown) | – | – | ventricular cardiomyocytes, C57BL/6 mouse | dose not given, 0.484 s | – | sarcomere length | 1.57 µm
OC(CCN1CCCCC1)(c1ccccc1)C1CC2C=CC1C2 (stereo not shown) | – | resting-state EEG | healthy elderly humans | oral, 2 mg, eyes closed, LS mean | reference: baseline | change in EEG Beta2-power Fz-Cz | -8.6%
Nc1ccn([C@@H]2O[C@H](COP(=O)(O)OP(=O)(O)O)[C@@H](O)[C@H]2O)c(=O)n1 | RNASE1 (Bos taurus, UniProt P61823) | binding, native MS titration | – | – | – | Kd | 4.1 ± 0.2 µM
Cn1cc(-c2ccc(-c3cncc(Cl)c3N3CCC4(CCNC4=O)CC3)cc2)cn1 | COLO 205 | gene expression, microarray, refers to: NFE2L2 mRNA | – | concentration not given, 2 h | reference: untreated cells | log2 fold change | 2.1
Oc1ccccc1-c1n[nH]cc1-c1ccnc2ccccc12 | MKK2 (Candida albicans) | kinase binding, MIB/MS competition | Candida albicans lysate | 1 µM | reference: DMSO | log2 fold change | 0.02
COc1cc(/C=C/C(=O)N2CCC=CC2=O)cc(OC)c1OC | Toxoplasma gondii | parasite growth, luciferase reporter | HFF, tachyzoite | 72 h | – | EC50 | 3920 nM

Some of these lines once more:
SMILES | tested on | assay | test system | setting | scale | endpoint | result
COc1cc(/C=C/C(=O)N2CCC=CC2=O)cc(OC)c1OC | Toxoplasma gondii | parasite growth, luciferase reporter | HFF, tachyzoite | 72 h | – | EC50 | 3920 nM
